Results gathered from unrelated publications.
± gives the spread as reported.

Compound | organism | assay | system | setting | EC50
C#CCNC(=O)C(=O)c1c(C)c(C(=O)Nc2ccc(F)c(F)c2)n(C)c1C | hepatitis B virus | viral replication, immunofluorescence, item: HBcAg | HBV-infected HepG2-NTCP cells | 7 days post-infection, dosed from 24 h pre-infection | 1.28 ± 0.902 µM
O=c1[nH]c(=O)c2ncn(CC(CO)OCP(=O)(O)O)c2[nH]1 (racemic) | human cytomegalovirus | cytopathic effect | HEL, Davis |  | 48.6 ± 24.2 µM
CC1CCN(Cc2cc(/C=C/C(=O)c3ccc(Cl)cc3)ccc2O)CC1 | Plasmodium knowlesi | parasite growth |  | 24 h, blood stage | 19.9 µM
COc1cc(C=C2CCCC(=Cc3ccc(O)c(OC)c3)C2=O)ccc1O | dengue virus 2 | viral replication | BHK-21 DENV2 replicon | 24 h | 8.07 ± 1.52 µM
CC(C)S(=O)(=O)n1c(N)nc2ccc(/C(=N/O)c3ccccc3)cc21 | Enterovirus A71 | cytopathic effect, neutral red uptake | RD, Tainan/4643/98 | 37 °C, no MgCl2 | 1 ± 1.1 µM
O=C(/C=C/c1ccc(O)c(CN2CCCCC2)c1)c1ccc(F)cc1 | Plasmodium knowlesi | parasite growth |  | 24 h, blood stage | 21.1 µM
Nc1nc2c(ncn2COCCO)c(=O)[nH]1 | Human alphaherpesvirus 1 | plaque formation | Vero, KOS | 55 h, 1% DMSO | 0.81 µM
O=C(/C=C/c1ccc(O)c(CN2CCOCC2)c1)c1ccc(F)cc1 | Plasmodium knowlesi | parasite growth |  | 24 h, blood stage | 24.6 µM
CCOC(=O)C1=C(CN2CCOCC2)NC(c2nccs2)=NC1c1ccc(F)cc1Br (stereo not drawn) | hepatitis B virus | viral replication, immunofluorescence, item: HBcAg | HBV-infected HepG2-NTCP cells | 7 days post-infection, dosed from 24 h pre-infection | 0.153 ± 0.008 µM
CCOC(=O)c1ccc(OCCC2CCN(c3ccc(C)nn3)CC2)cc1 | Enterovirus A71 | cytopathic effect, neutral red uptake | RD, Tainan/4643/98 | 37 °C, no MgCl2 | 0.78 ± 0.32 µM
CCN(CC)CCCC(C)Nc1ccnc2cc(Cl)ccc12 (stereo not drawn) | Plasmodium knowlesi | parasite growth |  | 24 h, blood stage | 0.04 µM
CNC(=O)c1ccc(-c2cnn3ccc(C(=O)N(C[C@H]4CCC(=O)O4)c4ccc(OC(F)(F)F)cc4)cc23)cc1 | Cryptosporidium parvum | cytopathic effect | HCT-8 | 48 h | 0.35 µM
CC1(C)[C@@H](O[C@H]2O[C@H](C(=O)O)[C@@H](O)[C@H](O)[C@H]2O[C@@H]2O[C@H](C(=O)O)[C@@H](O)[C@H](O)[C@H]2O)CC[C@]2(C)[C@H]3C(=O)C=C4[C@@H]5C[C@@](C)(C(=O)O)CC[C@]5(C)CC[C@@]4(C)[C@]3(C)CC[C@@H]12 | Epstein-Barr virus | viral genome copies, quantitative PCR | superinfected Raji cells | 24 h | 30 ± 5 µM
CCOC(=O)N[C@@H](CC(C)C)C(=O)N1CCC[C@H]1C(=O)Nc1ccc(C#CC#Cc2ccc(NC(=O)[C@@H]3CCCN3C(=O)[C@H](CC(C)C)NC(=O)OCC)cc2)cc1 | Hepatitis C virus | viral replication, inhibitor | Huh-5-2, GETYPE1B | replicon | 4.3 µM
CC(C)(c1ccc(O)cc1)c1ccc(O)cc1 | SV40 | cytoprotection | BSC-40 | 120 h | 6.2 µM

For quick reference, copied from above:
Compound | organism | assay | system | setting | EC50
COc1cc(C=C2CCCC(=Cc3ccc(O)c(OC)c3)C2=O)ccc1O | dengue virus 2 | viral replication | BHK-21 DENV2 replicon | 24 h | 8.07 ± 1.52 µM
CCOC(=O)c1ccc(OCCC2CCN(c3ccc(C)nn3)CC2)cc1 | Enterovirus A71 | cytopathic effect, neutral red uptake | RD, Tainan/4643/98 | 37 °C, no MgCl2 | 0.78 ± 0.32 µM
